Measured values from different studies.
Each numbered part is a random draw from the data of one study; scales do not carry over between parts. Substitutions count along the parent as printed.

Sample 1
Target: Prothrombin, mature alpha-thrombin (F2, Homo sapiens, UniProt P00734)
Technique: aptamer microarray, sandwich
Form: DNA with 2'F-ANA
Matrix: in vitro
Tested at: 200 nM
Notes: whole 15-mer aptamer, many near background
Added: Cy3 exosite-II aptamer, 400 nM
Reading: higher = stronger binding
Oligonucleotide: GGTTGGTGTGGTTGG
Modification	mean fluorescence intensity
2'F-ANA at 1 3 5 6 9 10 11 12 14	48.3 a.u.
2'F-ANA at 1 2 3 4 5 7 8 10 12 13 14 15	50.3 a.u.
2'F-ANA at 4 9 11 12 13 14	92.9 a.u.
2'F-ANA at 1 4 5 6 8 9 13 14	79.1 a.u.
2'F-ANA at 1 3 5 7 8 13 14	51.8 a.u.
2'F-ANA at 1 3 5 6 7 11 14	47.5 a.u.
2'F-ANA at 2 3 5 10 11 12 15	61.6 a.u.
2'F-ANA at 2 4 6 8 9 11 13	157 a.u.
2'F-ANA at 1 2 5 6 7 8 11 13 15	56.7 a.u.
2'F-ANA at 3 4 6 7 9 10 12 13 15	218 a.u.
2'F-ANA at 2 3 4 5 6 10 12 14	47.9 a.u.
2'F-ANA at 1 3 5 6 7 8 10 15	52.3 a.u.
2'F-ANA at 1 3 6 8 9 12	531 a.u.
2'F-ANA at 3 5 6 7 8 9 12	297 a.u.
2'F-ANA at 1 2 5 6 10 11 12	58.6 a.u.
2'F-ANA at 1 2 3 6 8 10 11 13 14 15	66.9 a.u.
2'F-ANA at 1 4 10 12 13 14	48.2 a.u.
2'F-ANA at 4 6 9 11	209 a.u.
2'F-ANA at 1 2 3 6 11 12 14 15	79.6 a.u.
2'F-ANA at 2 4 7 8 9 12 14	132 a.u.
2'F-ANA at 3 4 5 6 9 10 11 14 15	55.2 a.u.
2'F-ANA at 3 7 8 9 10 11 12 13 14	436 a.u.
2'F-ANA at 1 3 4 5 8 12 13 15	89.9 a.u.
2'F-ANA at 1 5 8 10 11 12	304 a.u.
2'F-ANA at 2 5 6 7 8 9 11 12 13	106 a.u.

Sample 2
Target: CCNA2, cyclin fold, Cln2 fusion (human)
Technique: yeast growth competition, sequencing
Matrix: yeast
Notes: strong parent motif
Relative to: not given
Reading: higher = stronger binding
Starting sequence: ORC1 docking peptide (human); PRARKRLELGNLG; partner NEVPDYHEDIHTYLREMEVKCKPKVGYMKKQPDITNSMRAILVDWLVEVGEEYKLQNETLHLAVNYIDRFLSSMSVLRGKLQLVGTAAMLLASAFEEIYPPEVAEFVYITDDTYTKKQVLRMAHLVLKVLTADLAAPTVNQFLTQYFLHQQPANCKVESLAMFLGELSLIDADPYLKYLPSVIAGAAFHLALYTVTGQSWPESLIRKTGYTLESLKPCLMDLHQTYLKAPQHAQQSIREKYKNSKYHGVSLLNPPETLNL
Substitution	normalised enrichment score
PRARKRLTLGNLG [E8T]	2.11
PRARKRLALGNLG [E8A]	3.7
PRARKRLELGNWG [L12W]	5.29
PRIRKRLELGNLG [A3I]	1.06
PRARKRLMLGNLG [E8M]	4.2
PRARKILELGNLG [R6I]	2.03
PRARKRLELGNGG [L12G]	4.52
PRARRRLEFGNLG [K5R L9F]	6.95
PRARKRLELGNLA [G13A]	5.05
PRARMRLELGNLG [K5M]	2.25
PRATKRLELGNLG [R4T]	1.38
PRARKRLELDNLG [G10D]	6.67
PRARKRLELGNAG [L12A]	5.5
PCARKRLELGNLG [R2C]	3.7
PRARKRLEPGNLG [L9P]	0.625
PRARKRLELGNLC [G13C]	5.11
PSARKRLELGNLG [R2S]	4.7
PRARKRLELGNIG [L12I]	5.12
TRARKRLELGNLG [P1T]	4.6
PRALKRLELGNLG [R4L]	0.949
PRARKRLSLGNLG [E8S]	3.84
PRARIRLELGNLG [K5I]	2.15
PRARKRLKLGNLG [E8K]	3.06
PRAHKRLELGNLG [R4H]	1.29
PRARKELELGNLG [R6E]	1.11

Sample 3
Target: RNA binding protein fox-1 homolog 2, RRM domain, GST-SBP tag (RBFOX2, Homo sapiens, UniProt O43251-10, residues 100-194)
Technique: RNA Bind-n-Seq
Form: RNA
Matrix: in vitro
Tested at: 365 nM
Notes: natural RNA segment, single round, ends assumed
Relative to: no-protein control
Reading: higher = stronger binding
All sequences stand within: GGGAGUUCUACAGUCCGACGAUC … UGGAAUUCUCGGGUGCCAA
Target sequence (chain): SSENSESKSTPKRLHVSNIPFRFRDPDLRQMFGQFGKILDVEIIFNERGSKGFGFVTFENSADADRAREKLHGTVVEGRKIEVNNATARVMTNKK
Oligonucleotide	RBNS enrichment (R)
UCCCAGCGCCUGCCUGCUGGGGCUGCCUGCAUGCCUCCCCUGCACCUGGGGGUACCCGCAUCCACUUCCUUUCCCCCUUUUAACAAAAGAGAAGAACGAAUUCCAAACCA	21.1
AUAAGGAGGAAAACCAAAACCCCAAGCACCCAUUAAACAAGUCCUGGCAGGACUCACAGGAACAAACGAGGUCCCUGUUAGGGUUCUACUCGGGGGAGGGAGGGGGCUCC	0.299
UUUGUUUGGUUUUUUAAGAAGAAUUUAUAUCCGGGUUUAGUGUUUAUCAUAUAUAUGGGUACUCUGUAAUAUCUAAAAGCUUAGAAAUGGGAUCUUGCUCACAAGAAUCA	0.99
GCAUCCCCAGCUGCCCCACAUCUUGCCUCUGGCCCUCAGAGAGGGGUGUUUCUGUGGGUACUCCUCUUACCCCAGCAAAUAAAAGGAAUUGUCUGACCCUAGAGGCAGAU	1.63
CGGUGCUGUGCCUUCAGAUGGGAGGUGGGCGCGGUGGCCUCCUCCUUCCCUCCAGGACCUGCCCGUGUGAAGACCCCCCGGAGUGCUGAGCUUCAGGGCUGCGUGGAAAG	0.215
AAUUUUAAAAAGCUACUAGUGAGAAACCAAAUGAUAGGUUGUAGAGCCUGAUGACUCCAAACAAAGCCAUCACCCGCAUUCUUCCUCCUUCUUCUGGUGCUACAGCUCCA	0.326
GUAACUUUUGAUACCAGAAUAAAUCUUUCGUGUUUGUCACUAAAGCAUCGGAGUCUCGCUAGUUUCUCAUGGUUGGGUCACAGCAUCCUUGUCGCUGUAUUAAGUGCAGU	0.33
UUGAUGCCUUCUGUCUUUUCAUGAUAAUGUGCUAACAAGUUGUGUUAAUAUUUUACUCAGCCAGAGUCUCAUUCAUUUGCUAAGCAUUGGGAACAUUAUGUAUAUUGACC	0.249
CUAGAGCCAAGUGAGUGCAUGUCUAGGGUUCCCAUGUUUACAGUAAGGACCGGCUCAGGCACUGACCCUCUGAGUCACGUGAAUGAGGACGAAGAAUUUGGAAUAGGUUU	7.98
UUUUAUUUAUUUAAUUUUCUUGGUUUGGAGAUGUCAGUCCCAAACACCAGAGUCUGUACUUUUCUAUAACACAGCUCAGAUUAAGGUAGGGCAUAUGCCAAGGAGGUUCU	0.419
ACCCCCAGUUGUGAAAACUGCAGUUUAGCAGUGACCUCAGCAACCCCUCCUUUUUAUUUUUUCCUUUAAAAACAUUUCAGUUAAAUUAAGCUACUGAUUUGGAUUUGUUU	0.44
GGGAGGGGUCUCCUGCUGGGGUCCUGAUGCCUCUGUUUCCAAACAAGGUACAGGUUCAGUCCAGACUCUUUCCCCCUGGGACCAACAGCAGCCAGAGCAGUUAGCCAGUU	0.259

Sample 4
Target: ABI1, truncated, D143A, DHFR fusion (Arabidopsis thaliana)
Technique: DHFR PCA, deep sequencing
Matrix: yeast
Notes: methotrexate growth selection, single substitutions
Added: (+)-ABA 4.8 µM
Relative to: wild-type fitted maximum
Reading: higher = stronger binding
Starting sequence: PYL1, truncated, DHFR fusion (Arabidopsis thaliana); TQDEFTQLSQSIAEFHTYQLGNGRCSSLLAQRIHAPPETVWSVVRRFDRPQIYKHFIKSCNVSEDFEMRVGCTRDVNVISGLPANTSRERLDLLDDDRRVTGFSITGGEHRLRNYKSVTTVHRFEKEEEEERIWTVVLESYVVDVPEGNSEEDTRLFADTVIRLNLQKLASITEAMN; partner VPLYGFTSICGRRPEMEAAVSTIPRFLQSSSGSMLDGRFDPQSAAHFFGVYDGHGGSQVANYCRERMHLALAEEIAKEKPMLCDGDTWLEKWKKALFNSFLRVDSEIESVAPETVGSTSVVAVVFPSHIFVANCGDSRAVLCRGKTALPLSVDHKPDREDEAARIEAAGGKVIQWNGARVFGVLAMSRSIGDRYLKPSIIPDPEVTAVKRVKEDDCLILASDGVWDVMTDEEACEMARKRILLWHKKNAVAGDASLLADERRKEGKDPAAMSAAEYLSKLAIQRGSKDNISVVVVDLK
Substitution	relative binding score
K126V	89.3%
S104A	1.12%
F157G	-2.57%
H34T	39.8%
P36L	51.9%
D92T	29.9%
R132N	91%
R49G	13%
S27D	47.6%
I133Y	74%
K54F	-1.25%

For quick reference, copied from above (sample 2):
Substitution	normalised enrichment score
PRARKRLELGNWG [L12W]	5.29
PRALKRLELGNLG [R4L]	0.949
PRARKRLSLGNLG [E8S]	3.84
PRARKRLELGNLA [G13A]	5.05
PRIRKRLELGNLG [A3I]	1.06
PRARKRLELGNAG [L12A]	5.5
